Earlier results, collected from citations in different studies.
Compare with care: the assays were run in different laboratories. Several values in a cell are separate wells, animals, samples, runs or records. ± gives the spread as reported. In brackets after ≈: the same amount, converted by molar mass.

The fraction unbound of `NC12CC3CC(CC(C3)C1)C2` is reported as 0.218 (dog).
With `Cc1nnc2n1-c1ccc(Cl)cc1C(c1ccccc1Cl)=NC2` the Km was 145 µM (CYP3A4; substrate, item: 4-hydroxy metabolite formation).
For `CCCCCCCN(CC)CCCC(O)c1ccc(NS(C)(=O)=O)cc1` (stereo not drawn), the fraction unbound was 0.119 (dog).
`FC(F)(F)C(F)(F)C(F)(F)C(F)(F)C(F)(F)C(F)(F)CCI` — result for IC50: “inactive” (CYP1A2; inhibitor; Tox21 screening).
For `O=NN1CCCC1`, “T>A mutation frequency” read “increased” (induced pluripotent stem cells; mutational fingerprint; concentration not given).
`C[Si]1(C)O[Si](C)(C)O[Si](C)(C)O[Si](C)(C)O[Si](C)(C)O1` has a bioconcentration factor of 408 L/kg wet weight (Cyprinus carpio; concentration not given).
The fraction unbound of `Cc1ncc2n1-c1ccc(Cl)cc1C(c1ccccc1F)=NC2` is reported as 0.03 (alpha-1-acid glycoprotein).
`O=C(O)C(F)(F)C(F)(F)C(F)(F)C(F)(F)C(F)(F)C(F)(F)C(F)(F)C(F)(F)F` — result for IC50: “inactive” (CYP3A4; inhibitor; Tox21 screening).
Under inhibition, `CCCCCc1cc(O)c2c(c1)OC(C)(C)[C@@H]1CCC(C)=C[C@@H]21` is recorded as “inhibited” (CYP2C9, human; enzyme activity, inhibitor; human liver microsomes; 10 µM).
The fraction unbound of `CC(C)C[C@H]1C(=O)N2CCC[C@H]2[C@]2(O)O[C@](NC(=O)[C@@H]3C=C4c5cccc6[nH]c(Br)c(c56)C[C@H]4N(C)C3)(C(C)C)C(=O)N12` is reported as 0.002 (mouse).
For `c1ccc2c(c1)Cc1ccccc1-2`, “amount in tissue” read 3.94 ng/well and 3.83 ng/well and 4.85 ng/well (zebrafish embryos, whole embryo; 415.6 ng/well, 48 hpf, single exposure).
`CCCC(C(=O)c1ccc2c(c1)OCO2)N1CCCC1` (racemic) gave an IC50 of 1.3 µM (CYP2D6; enzyme activity, inhibitor).
With `Cc1ncc([N+](=O)[O-])n1CCO` the LC50 was 0.31 µg/mL (≈ 1.81 µM) (Trichomonas gallinae; trypan blue).
For `NC(=O)N1c2ccccc2C=Cc2ccccc21`, the fraction unbound was 0.159 (dog).
`FC(F)(F)C(F)(F)C(F)(F)C(F)(F)CCI` — result for IC50: “inactive” (CYP2C9; inhibitor; Tox21 screening).
For `CCCCCOc1ccc(-c2ccc(-c3ccc(C(=O)N[C@H]4C[C@@H](O)[C@@H](O)NC(=O)[C@@H]5[C@@H](O)[C@@H](C)CN5C(=O)[C@H]([C@@H](C)O)NC(=O)[C@H]([C@H](O)[C@@H](O)c5ccc(O)cc5)NC(=O)[C@@H]5C[C@@H](O)CN5C(=O)[C@H]([C@@H](C)O)NC4=O)cc3)cc2)cc1`, “volume of distribution” read 37.6 ± 8.9 L (human renal impairment mild; 50 mg single dose).
`COc1ccc2c(c1)[C@]13CCCC[C@@H]1[C@H](C2)N(C)CC3` has a Km of 0.44 to 8.5 µM (CYP2D6; substrate).
`CCCCCc1cc(O)c2c(c1)OC(C)(C)c1ccc(C)cc1-2`: inhibition “inhibited” (CYP2E1 human; human liver microsomes; 10 µM).
With `C[Si](C)(C)O[Si](C)(C)O[Si](C)(C)C` the bioconcentration factor was 3610 L/kg wet weight and 5600 L/kg wet weight (Pimephales promelas; concentration not given, radiolabelled compound).
For `O=S(=O)(O)C(F)(F)C(F)(F)C(F)(F)C(F)(F)C(F)(F)C(F)(F)F`, the IC50 was 1.08 ± 0.36 µM (CYP2C9; inhibitor).
`Cn1nc(C(F)(F)F)cc1C(=O)Nc1ccc(S(=O)(=O)N2CCCCC2)cc1` has a CC50 of 199 ± 27 µM (Vero).
`CC(C)N(N=O)C(C)C`: Ames mutagenicity “negative” (Salmonella typhimurium; plate incorporation, preincubation; TA1535; up to 2000 µg/plate, with: uninduced rat liver S9).
For `Cc1ncc2n1-c1ccc(Cl)cc1C(c1ccccc1F)=NC2`, the Km was 38.4 µM (CYP3A5; 4-hydroxylation, substrate).
For `O=C(O)C(F)(F)C(F)(F)C(F)(F)C(F)(F)C(F)(F)C(F)(F)C(F)(F)C(F)(F)C(F)(F)C(F)(F)F`, the IC50 was 5.36 ± 0.62 µM (CYP2C9; inhibitor).
`O=c1n(CCCN2CCN(c3cccc(Cl)c3)CC2)nc2ccccn12` gave a fraction unbound of 0.066 (dog).
`O=C(O)C(F)(F)C(F)(F)C(F)(F)C(F)(F)C(F)(F)C(F)(F)C(F)(F)F`: IC50 “inactive” (CYP1A2; inhibitor; Tox21 screening).
The fraction unbound of `CNCCC=C1c2ccccc2CCc2ccccc21` is reported as 0.007 (dog).
`O=C(O)[C@@H](c1ccccc1)[C@@H]1CCCCN1` gave a half-life of 6.9 h (human, CES1 wild type, plasma; oral, 10 mg methylphenidate, single dose, median).
`COCCOC(=O)C1=C(C)NC(C)=C(C(=O)OC(C)C)C1c1cccc([N+](=O)[O-])c1` (stereo not drawn) has a fraction unbound of 0.007 (mouse).
`O=C(O)C(F)(F)C(F)(F)C(F)(F)C(F)(F)C(F)(F)F`: IC50 “inactive” (CYP2D6; inhibitor; Tox21 screening).

Excerpt of the above:
`O=C(O)C(F)(F)C(F)(F)C(F)(F)C(F)(F)C(F)(F)C(F)(F)C(F)(F)F`: IC50 “inactive” (CYP1A2; inhibitor; Tox21 screening).
For `NC(=O)N1c2ccccc2C=Cc2ccccc21`, the fraction unbound was 0.159 (dog).
